# Experimental data pooled from the literature.
# Protocols differ between the studies behind these lines. ± gives the spread as reported.
# Calpain-2 catalytic subunit: Calpain-2 catalytic subunit (Homo sapiens, UniProt P17655)
# Sequence of UniProt P17655 (whole entry, looked up): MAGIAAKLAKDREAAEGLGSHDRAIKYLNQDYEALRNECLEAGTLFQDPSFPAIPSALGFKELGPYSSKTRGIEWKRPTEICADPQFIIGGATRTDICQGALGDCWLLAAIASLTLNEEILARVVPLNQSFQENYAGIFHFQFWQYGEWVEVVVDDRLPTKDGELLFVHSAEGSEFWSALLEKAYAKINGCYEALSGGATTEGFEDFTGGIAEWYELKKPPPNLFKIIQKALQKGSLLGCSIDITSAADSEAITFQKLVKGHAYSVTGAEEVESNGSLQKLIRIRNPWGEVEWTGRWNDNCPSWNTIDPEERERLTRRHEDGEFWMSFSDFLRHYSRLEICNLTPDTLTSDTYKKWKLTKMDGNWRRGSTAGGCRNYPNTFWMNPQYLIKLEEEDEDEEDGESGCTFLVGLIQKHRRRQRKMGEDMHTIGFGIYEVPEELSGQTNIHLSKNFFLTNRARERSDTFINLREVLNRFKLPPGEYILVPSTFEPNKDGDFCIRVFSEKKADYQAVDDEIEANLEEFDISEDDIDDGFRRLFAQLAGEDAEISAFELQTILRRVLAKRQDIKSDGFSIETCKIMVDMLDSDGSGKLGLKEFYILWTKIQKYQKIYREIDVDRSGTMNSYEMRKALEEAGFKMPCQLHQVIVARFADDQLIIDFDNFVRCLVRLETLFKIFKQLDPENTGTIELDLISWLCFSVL
# HDAC3: Histone deacetylase 3 (HDAC3, Homo sapiens, UniProt O15379)
# Sequence of UniProt O15379 (whole entry, looked up): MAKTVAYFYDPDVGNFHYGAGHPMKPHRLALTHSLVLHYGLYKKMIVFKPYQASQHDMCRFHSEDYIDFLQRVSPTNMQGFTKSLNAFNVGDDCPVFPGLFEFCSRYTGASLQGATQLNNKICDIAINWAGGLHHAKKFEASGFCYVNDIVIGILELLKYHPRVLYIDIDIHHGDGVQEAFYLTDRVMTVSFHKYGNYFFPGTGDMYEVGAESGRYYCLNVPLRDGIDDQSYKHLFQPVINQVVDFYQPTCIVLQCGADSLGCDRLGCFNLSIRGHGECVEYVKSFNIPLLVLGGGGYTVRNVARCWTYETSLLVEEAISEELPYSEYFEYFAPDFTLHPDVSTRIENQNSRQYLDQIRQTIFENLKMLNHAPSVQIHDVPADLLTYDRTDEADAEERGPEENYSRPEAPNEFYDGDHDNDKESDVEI
# PTGS2: Prostaglandin G/H synthase 2 (PTGS2, Homo sapiens, UniProt P35354)
# Sequence of UniProt P35354 (whole entry, looked up): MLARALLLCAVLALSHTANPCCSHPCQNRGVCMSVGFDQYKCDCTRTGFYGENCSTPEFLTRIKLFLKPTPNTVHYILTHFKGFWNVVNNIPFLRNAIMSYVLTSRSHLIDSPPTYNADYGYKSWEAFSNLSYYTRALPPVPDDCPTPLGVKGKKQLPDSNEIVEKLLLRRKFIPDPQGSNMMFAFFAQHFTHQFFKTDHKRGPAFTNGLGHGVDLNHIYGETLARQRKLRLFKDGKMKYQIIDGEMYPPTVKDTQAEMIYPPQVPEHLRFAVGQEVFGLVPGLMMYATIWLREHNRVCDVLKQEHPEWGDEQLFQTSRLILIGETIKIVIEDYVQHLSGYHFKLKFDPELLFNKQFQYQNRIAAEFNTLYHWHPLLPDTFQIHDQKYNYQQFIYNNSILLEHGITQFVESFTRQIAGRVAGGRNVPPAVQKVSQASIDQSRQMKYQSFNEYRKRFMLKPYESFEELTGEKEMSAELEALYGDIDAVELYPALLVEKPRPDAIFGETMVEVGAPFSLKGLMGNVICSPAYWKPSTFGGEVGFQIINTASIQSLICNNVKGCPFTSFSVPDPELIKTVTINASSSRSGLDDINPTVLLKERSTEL
# P4HB: Protein disulfide-isomerase (P4HB, Homo sapiens, UniProt P07237)
# Sequence of UniProt P07237 (whole entry, looked up): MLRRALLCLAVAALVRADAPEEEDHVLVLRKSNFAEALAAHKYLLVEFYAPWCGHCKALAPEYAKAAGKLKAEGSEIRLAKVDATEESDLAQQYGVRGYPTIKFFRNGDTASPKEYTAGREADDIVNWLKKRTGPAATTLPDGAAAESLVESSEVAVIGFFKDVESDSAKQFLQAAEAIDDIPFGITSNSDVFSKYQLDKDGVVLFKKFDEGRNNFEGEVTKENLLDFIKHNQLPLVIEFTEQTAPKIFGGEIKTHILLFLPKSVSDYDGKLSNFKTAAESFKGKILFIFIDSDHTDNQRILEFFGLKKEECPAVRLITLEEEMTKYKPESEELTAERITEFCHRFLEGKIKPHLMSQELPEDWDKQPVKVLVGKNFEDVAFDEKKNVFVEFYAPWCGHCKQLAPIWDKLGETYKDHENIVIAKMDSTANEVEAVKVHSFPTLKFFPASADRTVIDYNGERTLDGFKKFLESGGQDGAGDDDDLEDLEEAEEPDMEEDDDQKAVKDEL
# Sequence of UniProt Q9Y251 (whole entry, looked up): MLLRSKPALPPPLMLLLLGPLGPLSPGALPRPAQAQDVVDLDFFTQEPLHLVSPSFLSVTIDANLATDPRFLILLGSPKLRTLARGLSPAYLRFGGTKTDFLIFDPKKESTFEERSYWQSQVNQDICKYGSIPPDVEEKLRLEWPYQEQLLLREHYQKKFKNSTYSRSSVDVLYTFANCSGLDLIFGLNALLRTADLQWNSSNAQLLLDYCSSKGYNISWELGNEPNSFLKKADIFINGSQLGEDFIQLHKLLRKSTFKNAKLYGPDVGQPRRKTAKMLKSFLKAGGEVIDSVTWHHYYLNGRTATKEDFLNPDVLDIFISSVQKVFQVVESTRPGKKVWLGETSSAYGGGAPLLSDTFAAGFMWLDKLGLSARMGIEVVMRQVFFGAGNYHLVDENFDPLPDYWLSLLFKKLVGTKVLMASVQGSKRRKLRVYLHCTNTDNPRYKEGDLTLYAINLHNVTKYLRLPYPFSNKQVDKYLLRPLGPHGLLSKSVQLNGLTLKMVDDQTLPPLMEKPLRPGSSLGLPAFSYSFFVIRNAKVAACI
# Sequence of UniProt O60733 (whole entry, looked up): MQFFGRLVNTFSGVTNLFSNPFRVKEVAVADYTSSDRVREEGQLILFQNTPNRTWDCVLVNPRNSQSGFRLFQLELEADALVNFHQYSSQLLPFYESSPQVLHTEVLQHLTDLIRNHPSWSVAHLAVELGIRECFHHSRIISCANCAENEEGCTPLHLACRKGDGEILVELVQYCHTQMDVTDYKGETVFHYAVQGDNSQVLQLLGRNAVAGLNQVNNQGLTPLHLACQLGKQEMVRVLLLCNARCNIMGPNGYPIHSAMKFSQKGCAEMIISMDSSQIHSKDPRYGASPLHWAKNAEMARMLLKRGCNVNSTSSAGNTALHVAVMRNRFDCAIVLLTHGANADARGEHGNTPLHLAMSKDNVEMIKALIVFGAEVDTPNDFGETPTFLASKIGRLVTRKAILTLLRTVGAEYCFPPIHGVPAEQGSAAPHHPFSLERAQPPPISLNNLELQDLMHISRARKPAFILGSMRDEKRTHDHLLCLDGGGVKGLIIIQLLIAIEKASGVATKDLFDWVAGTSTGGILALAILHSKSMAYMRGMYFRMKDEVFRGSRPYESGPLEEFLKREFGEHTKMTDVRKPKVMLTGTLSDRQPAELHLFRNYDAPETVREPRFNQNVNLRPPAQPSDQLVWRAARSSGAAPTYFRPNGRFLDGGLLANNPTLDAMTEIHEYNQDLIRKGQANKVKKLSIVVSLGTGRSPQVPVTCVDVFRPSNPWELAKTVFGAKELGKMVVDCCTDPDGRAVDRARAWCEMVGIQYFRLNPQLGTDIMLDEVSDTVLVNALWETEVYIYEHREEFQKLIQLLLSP
# Sequence of UniProt P98170 (whole entry, looked up): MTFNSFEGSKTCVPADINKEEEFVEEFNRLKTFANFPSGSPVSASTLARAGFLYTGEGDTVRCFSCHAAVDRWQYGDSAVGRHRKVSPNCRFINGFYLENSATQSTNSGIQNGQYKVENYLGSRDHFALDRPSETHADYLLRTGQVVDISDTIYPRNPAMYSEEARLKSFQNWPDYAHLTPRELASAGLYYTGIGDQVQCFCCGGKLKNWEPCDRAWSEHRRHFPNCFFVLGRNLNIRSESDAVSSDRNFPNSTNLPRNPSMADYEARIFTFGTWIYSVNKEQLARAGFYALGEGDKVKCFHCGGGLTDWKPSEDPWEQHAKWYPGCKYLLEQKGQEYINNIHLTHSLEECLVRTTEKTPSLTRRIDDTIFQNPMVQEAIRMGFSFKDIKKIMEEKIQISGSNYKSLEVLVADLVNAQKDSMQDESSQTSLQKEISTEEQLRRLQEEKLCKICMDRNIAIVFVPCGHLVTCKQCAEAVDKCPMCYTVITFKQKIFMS
# Sequence of UniProt Q8NHU3 (whole entry, looked up): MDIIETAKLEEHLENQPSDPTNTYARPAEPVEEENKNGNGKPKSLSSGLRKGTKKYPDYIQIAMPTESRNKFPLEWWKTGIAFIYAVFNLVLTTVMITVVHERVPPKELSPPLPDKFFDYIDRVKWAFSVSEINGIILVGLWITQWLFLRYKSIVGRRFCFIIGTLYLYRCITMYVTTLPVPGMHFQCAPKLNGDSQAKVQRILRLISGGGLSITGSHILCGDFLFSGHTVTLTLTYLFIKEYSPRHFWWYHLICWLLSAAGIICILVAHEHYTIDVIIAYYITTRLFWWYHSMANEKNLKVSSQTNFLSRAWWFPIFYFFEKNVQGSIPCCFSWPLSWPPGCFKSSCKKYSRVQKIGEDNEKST
SMILES,target or system,test,system,conditions,how to read,measurement,result
CCC(NC(=O)C(CC(C)C)NC(=O)CCc1ccccc1)C(=O)C(=O)NCc1cc(OC)cc(OC)c1 (stereo not drawn),Calpain-2 catalytic subunit,"enzyme activity, inhibitor",,with: Suc-Leu-Tyr-AMC,baseline: Ki calpain-1 over calpain-2,selectivity ratio,2.4
CC(C)=CCCC(C)=CCc1cc(-c2coc3cc(OC4OC(C(=O)O)C(O)C(O)C4O)ccc3c2=O)ccc1O (stereo not drawn),,"glucuronidation, substrate",rat liver microsomes,,,substrate inhibition Ki,8.82 ± 1.91 µM
O=C(O)[C@@H]1[C@@H](OCCNC(=O)C(F)(F)F)[C@H](O)[C@@H](O)[C@@H]2O[C@@H]21,"Heparanase (HPSE, Homo sapiens, UniProt Q9Y251)","inhibitor, competitive ABPP",,,baseline: IC50 E. coli β-glucuronidase over HPSE,selectivity ratio,67
O=C(CCCCCCN(Cc1ccc(F)cc1)Cc1ccc(F)cc1)NO,HDAC3,"deacetylase activity, inhibitor, fluorescence",,with: Boc-Lys(Ac)-AMC substrate,baseline: IC50 HDAC3 over IC50 HDAC1,selectivity ratio,0.92
O=C(Nc1cccnc1)c1ccccc1OCc1ccccc1,"Phosphatidylcholine:ceramide cholinephosphotransferase 2 (SGMS2, Homo sapiens, UniProt Q8NHU3)","enzyme activity, inhibitor",,,baseline: IC50 SMS1 over IC50 SMS2,selectivity ratio,48
CCc1nc2cc3ccccc3cc2cc1C(=O)N1CCC[C@H]1C(=O)N[C@@H](CCC/C=C/CCC[C@H](NC(=O)[C@@H]1CCCN1C(=O)c1cc2cc3ccccc3cc2nc1CC)C(=O)N[C@@H](CCCCN)C(=O)NCCCN)C(=O)N[C@@H](CCCCN)C(=O)NCCCN,(CUG)10 RNA,"binding, SPR",,,baseline: (CUG)10 over (CAG)10,selectivity ratio,38 fold
Brc1ccc(NCc2cn(-c3ccccc3)nc2-c2ccc(OCc3ccccc3)cc2)cc1,PTGS2,"enzyme activity, inhibitor, TMPD chromogenic",,,baseline: COX-1 IC50 over COX-2 IC50,selectivity ratio,13
O=C(CCCCCCNCc1ccccc1)NO,HDAC3,"deacetylase activity, inhibitor, fluorescence",,with: Boc-Lys(Ac)-AMC substrate,baseline: IC50 HDAC3 over IC50 HDAC1,selectivity ratio,1.3
OCCn1ncc2c(Nc3ccc(F)cc3)ncnc21,Plasmodium falciparum,parasite growth,NF54,72 h,,IC50,4.5 ± 1.5 µM
CN(C)CCNC(=O)c1cccc2c(NCCCCc3c(N)nc(N)nc3N)c3ccccc3nc12,"RNA D, U–U mismatch","binding, ITC",,,baseline: Kd RNA A over Kd RNA D,selectivity ratio,6.9
COC(=O)[C@@]1(C)C=C(C(=O)Nc2cccc(C(=O)Nc3ccc(Nc4nccc(-c5cccnc5)n4)c(C)c3)c2)C(=O)CC1,"Mitogen-activated protein kinase 1 (MAPK1, Homo sapiens, UniProt P28482)",,,,baseline: JNK1 over MAPK1,selectivity ratio,~1000 fold
N=C(N)NCCC[C@@H]1NC(=O)[C@H](CCCCNC(=O)CC[C@H](NC(=O)CC[C@H](NC(=O)CN2CCN(CC(=O)O)CCN(CC(=O)O)CCN(CC(=O)O)CC2)C(=O)N[C@@H](CCC(=O)NCCCC[C@@H]2NC(=O)[C@@H](Cc3ccccc3)NC(=O)[C@H](CC(=O)O)NC(=O)CNC(=O)[C@H](CCCNC(=N)N)NC2=O)C(=O)NCCCC[C@@H]2NC(=O)[C@@H](Cc3ccccc3)NC(=O)[C@H](CC(=O)O)NC(=O)CNC(=O)[C@H](CCCNC(=N)N)NC2=O)C(=O)NCCCC[C@@H]2NC(=O)[C@@H](Cc3ccccc3)NC(=O)[C@H](CC(=O)O)NC(=O)CNC(=O)[C@H](CCCNC(=N)N)NC2=O)NC(=O)[C@@H](Cc2ccccc2)NC(=O)[C@H](CC(=O)O)NC(=O)CNC1=O [indium-111 labelled],,,"female athymic nu/nu mice, liver","intravenous, 1 h",,tissue uptake,2.67 ± 0.32 %ID/g
O=C(CCCCCCN(Cc1ccccc1)Cc1ccccc1)NO,HDAC3,"deacetylase activity, inhibitor, fluorescence",,with: Boc-Lys(Ac)-AMC substrate,baseline: IC50 HDAC3 over IC50 HDAC1,selectivity ratio,1
O=C1CCN(Cc2ccccc2)CC1C(C[N+](=O)[O-])c1ccccc1 (stereo not drawn),,tail immersion test,BALB/c mice,"ip, 25 mg/kg, 0.75 h",,tail flick response,26.4%
CN[C@@H](C)C(=O)N[C@H]1CCCCNC(=O)[C@H](Cc2ccccc2)NC(=O)[C@@H]2CCCN2C(=O)[C@@H](NC(=O)[C@H](C)NC)CCCCNC(=O)[C@H](Cc2ccccc2)NC(=O)[C@@H]2CCCN2C1=O,"E3 ubiquitin-protein ligase XIAP, BIR3 domain (XIAP, Homo sapiens, UniProt P98170)","binding, fluorescence polarization",,,baseline: BIR3 over BIR2 affinity,selectivity ratio,~1000
CCC(NC(=O)C(CC(C)C)NC(=O)CCc1ccncc1)C(=O)C(=O)NCc1cc(OC)cc(OC)c1 (stereo not drawn),Calpain-2 catalytic subunit,"enzyme activity, inhibitor",,with: Suc-Leu-Tyr-AMC,baseline: Ki calpain-1 over calpain-2,selectivity ratio,1
N=C(N)NCCC[C@@H]1NC(=O)[C@H](CCCCNC(=O)CNC(=O)CNC(=O)CNC(=O)CC[C@H](NC(=O)CNC(=O)CNC(=O)CNC(=O)CC[C@H](NC(=O)CN2CCN(CC(=O)O)CCN(CC(=O)O)CCN(CC(=O)O)CC2)C(=O)NCC(=O)NCC(=O)NCC(=O)N[C@@H](CCC(=O)NCC(=O)NCC(=O)NCC(=O)NCCCC[C@@H]2NC(=O)[C@@H](Cc3ccccc3)NC(=O)[C@H](CC(=O)O)NC(=O)CNC(=O)[C@H](CCCNC(=N)N)NC2=O)C(=O)NCC(=O)NCC(=O)NCC(=O)NCCCC[C@@H]2NC(=O)[C@@H](Cc3ccccc3)NC(=O)[C@H](CC(=O)O)NC(=O)CNC(=O)[C@H](CCCNC(=N)N)NC2=O)C(=O)NCC(=O)NCC(=O)NCC(=O)NCCCC[C@@H]2NC(=O)[C@@H](Cc3ccccc3)NC(=O)[C@H](CC(=O)O)NC(=O)CNC(=O)[C@H](CCCNC(=N)N)NC2=O)NC(=O)[C@@H](Cc2ccccc2)NC(=O)[C@H](CC(=O)O)NC(=O)CNC1=O [indium-111 labelled],,,"female athymic nu/nu mice, blood","intravenous, 72 h",,tissue uptake,0.03 ± 0.01 %ID/g
CCCCC/C=C/C(=O)CCc1ccc(O)c(OC)c1,mAb 5-3H1,"antibody binding, indirect competitive ELISA",,with: coating antigen 1-OVA,,IC50,0.441 µg/mL
O=C(CCCCCCNCc1ccc([N+](=O)[O-])cc1)NO,HDAC3,"deacetylase activity, inhibitor, fluorescence",,with: Boc-Lys(Ac)-AMC substrate,baseline: IC50 HDAC3 over IC50 HDAC1,selectivity ratio,4.5
CCC(NC(=O)C(CC(C)C)NC(=O)NCc1ccccc1)C(=O)C(=O)NCc1cc(F)cc(OC)c1 (stereo not drawn),Calpain-2 catalytic subunit,"enzyme activity, inhibitor",,with: Suc-Leu-Tyr-AMC,baseline: Ki calpain-1 over calpain-2,selectivity ratio,1
NS(=O)(=O)c1ccc(-n2cc(CNc3ccccc3)c(-c3ccc(OCc4ccccc4)cc3)n2)cc1,PTGS2,"enzyme activity, inhibitor, TMPD chromogenic",,,baseline: COX-1 IC50 over COX-2 IC50,selectivity ratio,14.9
CCC(NC(=O)C(CC(C)C)NC(=O)NCc1ccccc1)C(=O)C(=O)NCc1cc(OC)cc(OC)c1 (stereo not drawn),Calpain-2 catalytic subunit,"enzyme activity, inhibitor",,with: Suc-Leu-Tyr-AMC,baseline: Ki calpain-1 over calpain-2,selectivity ratio,2.9
Fc1ccc(NCc2cn(-c3ccccc3)nc2-c2ccc(OCc3ccccc3)cc2)cc1Cl,PTGS2,"enzyme activity, inhibitor, TMPD chromogenic",,,baseline: COX-1 IC50 over COX-2 IC50,selectivity ratio,32.3
CN(C)c1ccc(C(=O)N[C@@H](CSCCCC(=O)NO)C(=O)Nc2ccc(-c3ccccc3)cc2)cc1,Lucilia cuprina,larval weight gain,"LS strain, larvae on impregnated cotton wool",24 h,,IC50,380 µg
CCCC[C@H](NC(=O)COCCOCCNC(=O)CN1CCN(CC(=O)O)CCN(CC(=O)O)CC1)C(=O)N[C@H]1CC(=O)NCCCC[C@@H](C(N)=O)NC(=O)[C@H](Cc2c[nH]c3ccccc23)NC(=O)[C@H](CCCNC(=N)N)NC(=O)[C@@H](Cc2ccccc2)NC(=O)[C@H](Cc2c[nH]cn2)NC1=O [copper-64 labelled],,,"C57 mice, kidney","intravenous, 0.37 MBq, 0.5 h",,tissue uptake,12.1 ± 1.51 %ID/g
N#CCc1cccc(Cl)c1-c1ccc2[nH][11c](=O)[nH]c2c1,P-glycoprotein and Bcrp,ex vivo brain uptake,mouse,"injection, 5 min, with: tariquidar",baseline: without tariquidar,brain uptake increase,146%
CCCC(CCC)C(=O)NO,Lucilia cuprina,pupation,"LS strain, larvae on impregnated cotton wool",216 h,,IC50,> 1000 µg
O=C(CCCCCCN(Cc1ccc2c(c1)OCO2)Cc1ccc2c(c1)OCO2)NO,HDAC3,"deacetylase activity, inhibitor, fluorescence",,with: Boc-Lys(Ac)-AMC substrate,baseline: IC50 HDAC3 over IC50 HDAC1,selectivity ratio,1.5
NS(=O)(=O)c1ccc(-n2cc(CNc3ccc(F)cc3)c(-c3ccc(OCc4ccccc4)cc3)n2)cc1,PTGS2,"enzyme activity, inhibitor, TMPD chromogenic",,,baseline: COX-1 IC50 over COX-2 IC50,selectivity ratio,22.2
O=C1CCc2ccc(NS(=O)(=O)c3cccc(Oc4ccccc4)c3)cc2N1,"85/88 kDa calcium-independent phospholipase A2 (PLA2G6, Homo sapiens, UniProt O60733)","inhibitor, fluorescence",,,baseline: cPLA2 over target,selectivity ratio,> 100 fold
NS(=O)(=O)c1ccc(-n2cc(CNc3ccc(Cl)cc3)c(-c3ccc(OCc4ccccc4)cc3)n2)cc1,PTGS2,"enzyme activity, inhibitor, TMPD chromogenic",,,baseline: COX-1 IC50 over COX-2 IC50,selectivity ratio,64.4
COc1ccc(CNCCCCCCC(=O)NO)cc1OC,HDAC3,"deacetylase activity, inhibitor, fluorescence",,with: Boc-Lys(Ac)-AMC substrate,baseline: IC50 HDAC3 over IC50 HDAC1,selectivity ratio,0.86
Fc1ccccc1NCc1cn(-c2ccccc2)nc1-c1ccc(OCc2ccccc2)cc1,PTGS2,"enzyme activity, inhibitor, TMPD chromogenic",,,baseline: COX-1 IC50 over COX-2 IC50,selectivity ratio,10.1
CCCCCCc1ccc(S(=O)(=O)N2CC2C(N)=O)cc1 (stereo not drawn),P4HB,"insulin reduction, inhibitor",,,baseline: IC50 PDIA1 over IC50 PDIA3,selectivity ratio,0.0004 to 0.0035
CC[C@H](C)[C@H](NC(=O)[C@@H](NC(=O)[C@H](Cc1ccc(O)cc1)NC(=O)[C@H](CCCCN)NC(=O)[C@H](CCCCN)NC(=O)[C@H](CC(C)C)NC(=O)[C@H](CC(=O)O)NC(=O)[C@H](Cc1ccc(O)cc1)NC(=O)[C@H](CCC(N)=O)NC(=O)[C@H](CCCCN)NC(=O)[C@@H](NC(=O)[C@H](Cc1ccccc1)NC(=O)[C@H](CCCCN)NC(=O)[C@H](CCCCN)NC(=O)[C@H](Cc1c[nH]c2ccccc12)NC(=O)[C@H](CCCCN)NC(=O)[C@H](CCSC)NC(=O)[C@H](CCCNC(=N)N)NC(=O)[C@H](CCCNC(=N)N)NC(=O)[C@H](CC(N)=O)NC(=O)[C@H](CCC(N)=O)NC(=O)[C@H](Cc1ccccc1)NC(=O)[C@H](Cc1c[nH]c2ccccc12)NC(=O)[C@@H](NC(=O)[C@H](CCCCN)NC(=O)[C@@H](NC(=O)[C@H](CCC(N)=O)NC(=O)[C@@H](N)CCCNC(=N)N)[C@@H](C)CC)[C@@H](C)CC)[C@@H](C)CC)[C@@H](C)CC)C(=O)O,Plasmodium falciparum,,,90 µM,,time to caspase activation,≤ 4 h
O=C(CCCCCCN(Cc1ccc([N+](=O)[O-])cc1)Cc1ccc([N+](=O)[O-])cc1)NO,HDAC3,"deacetylase activity, inhibitor, fluorescence",,with: Boc-Lys(Ac)-AMC substrate,baseline: IC50 HDAC3 over IC50 HDAC1,selectivity ratio,0.7
[64Cu+2].c1cnc(CNCc2ccc(CN3CCCN4CCNCCCN(CC4)CC3)cc2)nc1,CXCR4,,"NOD/SCID mouse, U87 and U87-stb-CXCR4 xenografts, kidney","iv, 90 min, ex vivo",,tissue uptake,35.3 ± 2.15 %ID/g
CCC(NC(=O)C(CC(C)C)NC(=O)CCc1ccccc1)C(=O)C(=O)NCc1cccc(OC)c1 (stereo not drawn),Calpain-2 catalytic subunit,"enzyme activity, inhibitor",,with: Suc-Leu-Tyr-AMC,baseline: Ki calpain-1 over calpain-2,selectivity ratio,2.8
CCCCCCc1ccc(S(=O)(=O)N2CC2C(=O)OC)cc1 (stereo not drawn),P4HB,"insulin reduction, inhibitor",,,baseline: IC50 PDIA1 over IC50 PDIA3,selectivity ratio,0.0004 to 0.0035
